Published values pooled from the literature.
Numbered parts are unrelated; each lists some results of a single study. Changes are numbered by the printed parent chain.

Study 1
Target: ATF2, bZIP domain (human)
Method: DHFR protein complementation
Matrix: yeast
Setting: single substitutions, most at no-binding floor
Reference: wild-type JUN-FOS pair
Direction: higher = stronger binding
Starting sequence: JUN, bZIP domain (human); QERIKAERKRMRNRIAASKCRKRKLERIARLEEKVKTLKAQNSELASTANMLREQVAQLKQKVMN; partner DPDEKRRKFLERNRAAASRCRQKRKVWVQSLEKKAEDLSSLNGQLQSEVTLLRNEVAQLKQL
Substitution	binding fitness
R30K	-1.48 natural log
A29I	-1.4 natural log
T48S	-1.33 natural log
K36L	-1.27 natural log
E44Y	-1.43 natural log
T37I	-1.38 natural log
M51Y	-1.43 natural log
K34M	-1.23 natural log
T48W	-1.52 natural log
V56G	-1.51 natural log
L45Y	-1.49 natural log
A46K	-1.4 natural log
E32A	-1.27 natural log
S43R	-1.27 natural log
E32Q	-1.41 natural log
L31S	-1.44 natural log
V35L	-1.42 natural log
A46M	-1.31 natural log
A57S	-1.42 natural log
A49F	-1.28 natural log
K34W	-1.43 natural log

Study 2
Target: RNA binding protein fox-1 homolog 2, RRM domain, GST-SBP tag (RBFOX2, Homo sapiens, UniProt O43251-10, residues 100-194)
Method: RNA Bind-n-Seq
Form: RNA
Matrix: in vitro
Tested at: 365 nM
Setting: natural RNA segment, single round, ends assumed
Reference: no-protein control
Direction: higher = stronger binding
Strand	RBNS enrichment (R)
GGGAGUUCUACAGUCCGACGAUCGGCAUCUAGCCAGAGGCUGGAGACAGGUGCGCCCCUGGUGGUCACAGGCUGUGCCUUGGUUUCCUGAGCCACCUUUACUCUGCUCUAUGCCAGGCUGUGCUAGCAACACCUGGAAUUCUCGGGUGCCAA	0.488
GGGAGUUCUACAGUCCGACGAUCUUGUAUGUUUUGUUAUGUCGAGGUAUUUCUAAAGAGAAGAUUUUAUAUAAUUAUAAGAGGAAGUGUAGUGAAUUGUACAGCUGUUGUAAUAAUGACCUAUUUCUAUAAAAUGGAAUUCUCGGGUGCCAA	3.14
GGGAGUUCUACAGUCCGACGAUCCUGUAUAUUGAGGGUUCCAUUCUUCGCGCAGUUUAGACAUCUCUGUUUUGAUUCUUUGUUGUUGUUUUUAUUUUAAAAGGCACAAACUCUAGAUAUUAGUUGAAUGUUGAUGGAAUUCUCGGGUGCCAA	0.605
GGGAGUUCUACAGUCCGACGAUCUGUGUGACAUUUAUAGGGAAUGUUGGCUCUGAACAAACUUUUGAAAACUUGGUUGACAAAAUUUUGGAUCAACUGAAAAAAGCAUGACUUUUGAAAUCUCUGAAUGCCUUUGGAAUUCUCGGGUGCCAA	5.6
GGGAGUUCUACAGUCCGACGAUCCCUAGCAUAUGUGAAGCCAUGGGUUCUAUUCUCAGAACUGAAAAAAAAAAAAAUUCCAUCCUCGUAUCUCAUGUGUACACAUAUGAACACACACACUGCACAUGUAACUGUGGAAUUCUCGGGUGCCAA	0.853
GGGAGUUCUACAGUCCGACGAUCAGGAAAAGAUUAAAAUAGUAAAAUAAAAGUAUUUAAACUUUCCUGAUAUUUAUGUACAUAUUAAGAUAAAUGUCAUGUGUAAGAUAACUGAUAAAUAUUGGAACUUUGCUUGGAAUUCUCGGGUGCCAA	0.516
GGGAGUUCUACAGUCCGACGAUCAAAAUGUACAUGAAGCUCCUUUCUGAUAUAGAAACCAUUUCUGGAGUAUUUACACUGGUUUGAUGUUUACAUUGCUCUAACUCGGUGCCUCAGAUACCUCUGUGACCAAAUGGAAUUCUCGGGUGCCAA	0.605
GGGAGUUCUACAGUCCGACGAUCUGGGAAGAGACGCCUUCAUUUGGGACGAAACUGGAGAUGUUAUAAGCAGAAACUCUGAAGAAAAGGAUUAUUUAAAGGACUCUAUGGGGAGAAAGAGAAGGCAACUCCUCUGGAAUUCUCGGGUGCCAA	0.467
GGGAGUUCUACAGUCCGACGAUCGUAAUAUUCAGUAAUAAAUGUCAUCAGGUGAUGACUGGAUGAGCUGCUGAAGACAUUCGUAUUAUGUGUUAGAUGCUUUAAUGUUUGCAAAAUCUGUCUUGUGAAUGGACUGGAAUUCUCGGGUGCCAA	5.15

Study 3
Target: RING finger protein unkempt homolog, zinc fingers 1-6, GST-SBP tag (UNK, Homo sapiens, UniProt Q9C0B0, residues 30-357)
Method: RNA Bind-n-Seq
Form: RNA
Matrix: in vitro
Tested at: not given
Setting: RNA with constant flanks, ends assumed
Reference: input RNA pool
Direction: higher = stronger binding
Target sequence (chain): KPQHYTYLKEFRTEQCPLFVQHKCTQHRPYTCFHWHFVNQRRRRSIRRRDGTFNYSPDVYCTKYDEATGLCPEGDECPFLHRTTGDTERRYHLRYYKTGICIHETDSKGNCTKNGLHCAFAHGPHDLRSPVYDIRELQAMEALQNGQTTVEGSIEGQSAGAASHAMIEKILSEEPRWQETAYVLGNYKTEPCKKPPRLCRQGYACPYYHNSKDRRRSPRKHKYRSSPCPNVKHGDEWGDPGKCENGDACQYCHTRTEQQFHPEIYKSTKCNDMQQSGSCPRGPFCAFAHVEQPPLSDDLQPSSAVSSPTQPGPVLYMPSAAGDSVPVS
Strand	bound/input enrichment
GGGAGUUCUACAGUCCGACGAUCAAAGCCAUCUUUUCCACAUUUUCUGUAAAUAAUGGAUAAUCAUUUUAAAAAUUUUUAUUUUCCGUGCUGUUUUAACAAUGUAGAUAGAUCAUAAAUGUACUUGCUGAAUUCAAUCAUUUUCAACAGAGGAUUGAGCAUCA	2.49 ratio
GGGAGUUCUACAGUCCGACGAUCACGAGCUGAUGGAUUGACGUGCGGGCUGCUUAGCCCAGACCGCCGCCCUCGCGCUCGCGCCUCCGACUGGAAUUGGCUGUCUCGGGGCUCUGGCCGCCGGCCUCUCCUCCGCGUUUUCCUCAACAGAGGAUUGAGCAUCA	0.0428 ratio
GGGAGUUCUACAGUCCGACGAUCUAGAGCUAGAUUCAAUCAGGUGUCUGAAAUGUGAGUUAAACAUUACUUUAUCCUUUGGUGCCGUUCUUAUUAUUUUCCAUUUAUUGUGCCUCUGGCAGCAGUGUUCCCUUUGAAAGGCCCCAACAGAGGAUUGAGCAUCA	1.69 ratio
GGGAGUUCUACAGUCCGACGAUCAUCUCCGCUAUGAACAAGGUGGCUGAAGUUUUACAAGUACCUCCAAUGAGAGUAUAUGAAGCCGCAACUUUUUAUACAAUGUAUAAUCGAAAGCCAGUUGGGAAGUACCAUAUCCAGGUCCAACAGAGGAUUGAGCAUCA	0.12 ratio
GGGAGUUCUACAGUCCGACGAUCCUGGCAUCAGUGAAGAUUUCCAAGGUGAAAUAUGUUAUCUGGUCGGCAGACAUGUCUCAUGCCGCGUUACUGGCCAAGCAUGCCAUUGUGAUCUGUAACCGCAAGCUGGAUGCUCUGUGUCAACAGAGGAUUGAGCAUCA	0.104 ratio
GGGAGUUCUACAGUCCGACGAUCAAACCCCAGGCUGUUUCUUCAUUAAGUUCUAGUCAUUCCAGGUCUCAUGGGAAUGAUCACCACCGCAAGGAACAUCAGCGCUCCAAAUCACCUCGGGACCCUGAUGCCAACUGGGAUUCUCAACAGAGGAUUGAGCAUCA	0.104 ratio
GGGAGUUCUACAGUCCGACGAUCGUCUCCUUUUUUGGCCCUAGGCUGGUUAGGAACCUGUACACCUUCACUCUCUCAUCAUUAAACCGUGGCCUUUUUCAGUAUUUCCUCUCUCCCCUCUAUAAGUUGCUGAAAUCACAAAGCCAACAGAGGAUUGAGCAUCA	0.659 ratio

Study 4
Target: Ras GTPase-activating protein-binding protein 1, RRM domain (G3BP1, Homo sapiens, UniProt Q13283)
UniProt Q13283, sequence (whole entry, looked up): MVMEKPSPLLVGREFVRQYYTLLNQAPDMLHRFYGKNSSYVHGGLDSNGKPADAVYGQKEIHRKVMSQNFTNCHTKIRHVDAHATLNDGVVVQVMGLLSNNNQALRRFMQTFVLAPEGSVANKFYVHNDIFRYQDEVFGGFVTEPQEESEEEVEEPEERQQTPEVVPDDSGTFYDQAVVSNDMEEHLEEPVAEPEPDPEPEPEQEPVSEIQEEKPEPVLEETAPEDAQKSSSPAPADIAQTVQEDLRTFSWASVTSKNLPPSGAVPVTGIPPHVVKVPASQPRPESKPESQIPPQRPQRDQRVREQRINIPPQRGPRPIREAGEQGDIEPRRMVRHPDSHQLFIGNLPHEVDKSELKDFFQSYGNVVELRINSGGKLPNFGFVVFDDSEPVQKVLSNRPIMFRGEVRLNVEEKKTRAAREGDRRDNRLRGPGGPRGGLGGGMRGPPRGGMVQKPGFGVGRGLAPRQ
Method: RNA Bind-n-Seq
Form: RNA
Matrix: in vitro
Tested at: 1 µM
Setting: whole 134-nt RNA, ends assumed
Together with: 150 mM KCl
Reference: input library
Direction: higher = stronger binding
Strand	log2 enrichment
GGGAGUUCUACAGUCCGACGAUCGUGCUACACAUCGUAUGUACCGAAUCGGGGUUUUUUUGGGGAAAAAAAGGGGUUUUUUUGGGGAAAGUAUUAUGUUACGCCGUUCGGAUCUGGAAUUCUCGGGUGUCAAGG	1.05
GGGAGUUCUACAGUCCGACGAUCUAACUUUAGAGGAGGAUCUGAUGGAUAUGGCAGUGGACGUGGAUUUGGGGAUGGCUAUAAUGGAUAUGGAGGAGGACCUGGAGGUGGCAAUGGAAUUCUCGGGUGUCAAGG	-0.348
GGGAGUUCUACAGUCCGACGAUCCCUCAAGUCCUGUGCUACACAUCGUAUGUACCGAAUCGGGGUGGUGGGGUGGAAAGUAUUAUGUUACGCCGUUCGGAUCUGCACUUCCAGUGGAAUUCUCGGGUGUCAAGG	-0.313
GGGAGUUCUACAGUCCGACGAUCCACAGACAACACGCACCCACACAGACACAGAGGGAAGGGGUUGGGAUGGGGAGAGGGUGCACAGCAGGGCGGGGUAGGACCCCAGCCCCUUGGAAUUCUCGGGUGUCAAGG	0.252
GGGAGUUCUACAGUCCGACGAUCAAGUCCUGUGCUACACAUCGUAUGUACCGAAUCGGUUUGGUUUUUUUGGAAAAAGGAAAGUAUUAUGUUACGCCGUUCGGAUCUGCACUUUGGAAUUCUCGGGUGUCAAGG	-0.209
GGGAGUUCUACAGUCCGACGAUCACUUUGUCAGAUAUUGCUAGGGACCAGUGAGAUAGAUAAUCCAAAAAUAAUAAUUUGACUUUGGUUGAGUAUGUCAUUACCACAGUGUUAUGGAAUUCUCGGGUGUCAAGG	-0.138
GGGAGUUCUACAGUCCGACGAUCAGUCCUGUGCUACACAUCGUAUGUACCGAAUCGGGCCCCGGGGCCCCGGCCCCGGGGAAAGUAUUAUGUUACGCCGUUCGGAUCUGCACUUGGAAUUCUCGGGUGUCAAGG	-1.2
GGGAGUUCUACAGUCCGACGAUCAGUCCUGUGCUACACAUCGUAUGUACCGAAUCGGCCCCCGGGCCCCCGGGCCCCCGGAAAGUAUUAUGUUACGCCGUUCGGAUCUGCACUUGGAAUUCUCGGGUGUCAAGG	-0.603
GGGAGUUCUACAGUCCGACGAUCUCCUGUGCUACACAUCGUAUGUACCGAAUCGGGAAAAAAAGGGUUUGGGUUUUUUUGGGAAAGUAUUAUGUUACGCCGUUCGGAUCUGCAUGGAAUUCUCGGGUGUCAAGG	-0.0809
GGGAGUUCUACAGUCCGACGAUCCACAGACAACACGCACCCACACAGACACAGAGGGAAGGGGUUGGGAUGGGGACAGGGUGCACAGCAGGGCAGGGUAGGACCCCAGCCCCUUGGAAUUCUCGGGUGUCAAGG	-0.429

Excerpt of the above (study 1):
Substitution	binding fitness
V35L	-1.42 natural log
A46M	-1.31 natural log
A57S	-1.42 natural log
